Results pooled from the literature.
Parts stem from different laboratories: compare values within a part only. Values joined by “and” are separate records of one study, mostly repeats; a detail may differ.
UniProt Q96PY6, sequence (whole entry, looked up): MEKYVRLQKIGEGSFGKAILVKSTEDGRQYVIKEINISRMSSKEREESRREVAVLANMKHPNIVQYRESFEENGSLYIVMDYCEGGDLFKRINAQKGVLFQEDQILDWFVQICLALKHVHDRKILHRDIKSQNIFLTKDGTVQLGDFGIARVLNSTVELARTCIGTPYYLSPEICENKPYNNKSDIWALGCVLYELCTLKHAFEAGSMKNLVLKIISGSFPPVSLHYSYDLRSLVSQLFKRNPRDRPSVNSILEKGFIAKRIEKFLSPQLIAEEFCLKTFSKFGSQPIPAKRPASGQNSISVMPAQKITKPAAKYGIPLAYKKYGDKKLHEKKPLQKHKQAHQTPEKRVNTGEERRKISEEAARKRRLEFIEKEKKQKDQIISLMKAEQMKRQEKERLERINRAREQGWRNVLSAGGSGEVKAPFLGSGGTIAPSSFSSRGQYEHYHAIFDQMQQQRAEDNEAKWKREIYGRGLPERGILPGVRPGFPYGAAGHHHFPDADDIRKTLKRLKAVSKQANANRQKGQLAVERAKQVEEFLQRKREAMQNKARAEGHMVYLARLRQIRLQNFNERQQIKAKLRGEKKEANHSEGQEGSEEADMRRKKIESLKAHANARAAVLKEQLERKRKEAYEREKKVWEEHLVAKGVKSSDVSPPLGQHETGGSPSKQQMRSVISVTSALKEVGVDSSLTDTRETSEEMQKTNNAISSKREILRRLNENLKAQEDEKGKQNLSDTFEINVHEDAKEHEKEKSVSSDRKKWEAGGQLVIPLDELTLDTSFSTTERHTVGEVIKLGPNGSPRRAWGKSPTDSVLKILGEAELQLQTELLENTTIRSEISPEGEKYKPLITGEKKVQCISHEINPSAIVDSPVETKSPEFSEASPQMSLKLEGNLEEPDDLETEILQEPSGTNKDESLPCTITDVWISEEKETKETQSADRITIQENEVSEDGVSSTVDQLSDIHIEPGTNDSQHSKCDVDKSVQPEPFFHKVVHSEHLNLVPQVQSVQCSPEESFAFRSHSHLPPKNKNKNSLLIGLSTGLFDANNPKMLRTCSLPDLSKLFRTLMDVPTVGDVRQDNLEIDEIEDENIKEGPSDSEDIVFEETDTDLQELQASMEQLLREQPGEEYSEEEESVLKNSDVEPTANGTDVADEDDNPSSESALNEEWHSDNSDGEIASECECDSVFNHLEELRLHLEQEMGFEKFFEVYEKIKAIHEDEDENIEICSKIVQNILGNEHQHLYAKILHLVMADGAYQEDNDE

Study 1
Target: Calcium/calmodulin-dependent protein kinase type II subunit alpha (CAMK2A, Homo sapiens, UniProt Q9UQM7)
UniProt Q9UQM7, sequence (whole entry, looked up): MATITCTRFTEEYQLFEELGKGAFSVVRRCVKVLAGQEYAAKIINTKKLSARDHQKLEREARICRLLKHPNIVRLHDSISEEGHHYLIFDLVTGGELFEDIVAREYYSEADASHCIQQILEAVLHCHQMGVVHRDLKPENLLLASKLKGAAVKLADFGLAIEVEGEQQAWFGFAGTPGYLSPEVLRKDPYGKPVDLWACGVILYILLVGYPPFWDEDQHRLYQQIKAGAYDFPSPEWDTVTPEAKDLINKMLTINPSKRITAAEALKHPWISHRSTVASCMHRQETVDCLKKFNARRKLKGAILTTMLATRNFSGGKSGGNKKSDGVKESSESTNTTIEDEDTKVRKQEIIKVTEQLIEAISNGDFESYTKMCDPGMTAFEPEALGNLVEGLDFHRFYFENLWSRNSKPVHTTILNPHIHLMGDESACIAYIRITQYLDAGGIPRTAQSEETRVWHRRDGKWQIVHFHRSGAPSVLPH
Read-out: enzyme activity
Action: inhibitor
Tested at: 10 µM
| SMILES | inhibition [%] |
| --- | --- |
| NC(=O)c1cccnc1 | -5 |
| CO/N=C(\C(=O)N[C@@H]1C(=O)N2C(C(=O)O)=C(C[N+]3(C)CCCC3)CS[C@H]12)c1csc(N)n1 | -9 |
| CC(C)=CCc1c(O)c(CC=C(C)C)c2oc3c(O)cccc3c(=O)c2c1O | 11 |
| CC(=O)NO | 1 |
| O=c1cc(-c2ccccc2)oc2cc(O[C@@H]3O[C@H](CO)[C@@H](O)[C@H](O)[C@H]3O)c(O)c(O)c12 | -18 |
| C[C@H](CCC(=O)NCC(=O)O)[C@H]1CC[C@H]2[C@@H]3[C@@H](O)C[C@@H]4C[C@H](O)CC[C@]4(C)[C@H]3CC[C@]12C | 38 |
| CC(=O)N[C@@H](CCCCN)C(=O)O | 25 |
| COc1cc(COC(=O)CCCCCCC(C)C)ccc1O | 18 |

Study 2
Target: DDB1- and CUL4-associated factor 1 (DCAF1, Homo sapiens, UniProt Q9Y4B6)
UniProt Q9Y4B6, sequence (whole entry, looked up): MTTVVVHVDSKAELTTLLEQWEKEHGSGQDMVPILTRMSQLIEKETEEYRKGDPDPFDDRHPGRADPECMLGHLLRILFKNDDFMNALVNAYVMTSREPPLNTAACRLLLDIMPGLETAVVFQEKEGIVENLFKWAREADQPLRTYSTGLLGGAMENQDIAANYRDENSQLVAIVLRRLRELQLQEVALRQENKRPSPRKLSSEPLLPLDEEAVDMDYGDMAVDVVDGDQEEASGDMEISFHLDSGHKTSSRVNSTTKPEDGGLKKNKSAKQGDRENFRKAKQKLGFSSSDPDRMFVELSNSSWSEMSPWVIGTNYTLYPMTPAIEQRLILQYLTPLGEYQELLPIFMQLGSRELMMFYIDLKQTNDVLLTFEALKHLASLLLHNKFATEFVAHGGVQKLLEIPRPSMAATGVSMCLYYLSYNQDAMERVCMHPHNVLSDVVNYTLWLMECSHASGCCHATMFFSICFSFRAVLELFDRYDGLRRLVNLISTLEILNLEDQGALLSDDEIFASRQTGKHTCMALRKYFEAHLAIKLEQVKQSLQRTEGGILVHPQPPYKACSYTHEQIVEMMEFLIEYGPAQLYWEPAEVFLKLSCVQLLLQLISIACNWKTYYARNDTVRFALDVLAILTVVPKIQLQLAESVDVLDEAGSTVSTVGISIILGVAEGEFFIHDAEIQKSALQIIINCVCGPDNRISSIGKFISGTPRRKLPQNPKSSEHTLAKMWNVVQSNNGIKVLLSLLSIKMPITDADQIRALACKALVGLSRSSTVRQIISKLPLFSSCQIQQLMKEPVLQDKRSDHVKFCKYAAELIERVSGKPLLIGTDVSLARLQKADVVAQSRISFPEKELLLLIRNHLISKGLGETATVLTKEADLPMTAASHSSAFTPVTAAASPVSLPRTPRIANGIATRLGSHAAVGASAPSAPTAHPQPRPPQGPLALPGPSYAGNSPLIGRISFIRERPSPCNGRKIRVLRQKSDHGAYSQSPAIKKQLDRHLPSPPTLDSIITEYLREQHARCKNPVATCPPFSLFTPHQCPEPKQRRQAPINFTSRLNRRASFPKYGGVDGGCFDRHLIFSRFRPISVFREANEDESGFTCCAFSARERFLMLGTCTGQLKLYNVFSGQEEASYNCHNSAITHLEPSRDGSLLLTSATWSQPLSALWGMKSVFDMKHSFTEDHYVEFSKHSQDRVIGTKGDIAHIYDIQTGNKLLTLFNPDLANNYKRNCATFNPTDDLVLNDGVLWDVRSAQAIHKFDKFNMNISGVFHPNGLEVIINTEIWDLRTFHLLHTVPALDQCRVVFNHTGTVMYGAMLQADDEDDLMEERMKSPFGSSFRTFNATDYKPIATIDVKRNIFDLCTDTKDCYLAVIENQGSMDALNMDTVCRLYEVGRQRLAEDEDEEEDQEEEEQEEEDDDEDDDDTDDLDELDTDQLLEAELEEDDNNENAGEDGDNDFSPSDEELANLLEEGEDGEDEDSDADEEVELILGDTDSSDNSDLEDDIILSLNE
Technique: differential scanning fluorimetry
Tested at: concentration not given
Notes: unit not given
Baseline: DCAF1 alone
| SMILES | ΔTm |
| --- | --- |
| C[C@@H]1CN(c2ccc(-c3cc(C(=O)NCCOCCOCCOCCOCCOCCOCCOCCOCCOCCNC(=O)/C=C/c4[nH]cc(C(=O)N[C@@H](CC(N)=O)c5ccc(F)c(Cl)c5)c4-c4ccc(Cl)cc4F)ccc3F)cc2NC(=O)c2c[nH]c(=O)cc2C(F)(F)F)C[C@H](C)N1C | 5.28 and 5.67 and 5.27 and 5.19 and 5.06 and 5.51 and 5.12 and 5.57 |
| C[C@@H]1CN(c2ccc(-c3cc(C(=O)NCCCNC(=O)/C=C/c4[nH]cc(C(=O)N[C@@H](CC(N)=O)c5ccc(F)c(Cl)c5)c4-c4ccc(Cl)cc4F)ccc3F)cc2NC(=O)c2c[nH]c(=O)cc2C(F)(F)F)C[C@H](C)N1C | 11.9 and 11.6 and 12 and 11.4 and 11.7 and 12.1 |
| C[C@@H]1CN(c2ccc(-c3cc(C(=O)NCCOCCOCCOCCOCCNC(=O)Cn4cc(-c5[nH]cc(C(=O)N[C@@H](CC(N)=O)c6ccc(F)c(Cl)c6)c5-c5ccc(Cl)cc5F)cn4)ccc3F)cc2NC(=O)c2c[nH]c(=O)cc2C(F)(F)F)C[C@H](C)N1C | 8.03 and 7.89 and 8.37 and 7.52 and 7.82 and 8.43 and 8.51 and 7.68 |

Study 3
SMILES: CN1CC[C@@H](c2c(O)cc(O)c3c(=O)cc(-c4ccccc4Cl)oc23)[C@@H]1CO
Cell line: HH
Technique: trypan blue exclusion
Time: 48 h
Baseline: untreated
| tested at | viability |
| --- | --- |
| 1 µM | 13.3% and 12.9% and 9.11% |
| 0.01 µM | 91.1% and 97.7% and 89.5% |
| 10 µM | 2.79% and 0% and 1.07% |
| 0.1 µM | 94.9% and 91.4% and 92.6% |
| 0.05 µM | 96.6% and 88.2% and 100% |
| 0.5 µM | 61.8% and 62.3% and 55.6% |
| 0.001 µM | 107% and 103% |

Single results of other studies
| Compound | target | read-out | action | tested at | baseline | quantity | result |
| --- | --- | --- | --- | --- | --- | --- | --- |
| N/C(=N\[N+](=O)[O-])N/N=C\c1ccc(-c2cccc([N+](=O)[O-])c2)o1 | Serine/threonine-protein kinase Nek1 (NEK1, Homo sapiens, UniProt Q96PY6) | enzyme activity | inhibitor | 0.5 µM | control | remaining activity | 97.7% |

Repeated from above (study 1):
| SMILES | inhibition [%] |
| --- | --- |
| CO/N=C(\C(=O)N[C@@H]1C(=O)N2C(C(=O)O)=C(C[N+]3(C)CCCC3)CS[C@H]12)c1csc(N)n1 | -9 |
| NC(=O)c1cccnc1 | -5 |
| CC(=O)N[C@@H](CCCCN)C(=O)O | 25 |
